Results from different studies.
Compare with care: the assays were run in different laboratories. “And” joins repeats or separate records; there may be more than shown. ± gives the spread as reported.

With `COC(=O)c1cc(NC2=NC(=O)C(=Cc3ccc(C)cc3)S2)ccc1OC(C)=O` the metabolite level was -0.35 fold change (MCF7; GC-MS, measured: Dodecanoic acid; 1 µM; baseline: DMSO).
`CC(C)c1ccc(N(C)c2ccc3c(c2)OCC[C@H]3CNc2cnccc2C(=O)O)cc1` gave an IC50 of 0.0116 µM (SNB-19; cell growth or viability, ATP luminescence; 7 days).
`CCCCCCCCCCCCCCCC(=O)OCC(CSC[C@H](N)C(=O)N[C@@H](CO)C(=O)N[C@@H](CCCCN)C(=O)N[C@@H](CCCCN)C(=O)N[C@@H](CCCCN)C(=O)N[C@@H](CCCCN)C(=O)NCCCCCC(=O)N[C@@H](CCCCN)C(=O)N[C@@H](CC(C)C)C(=O)N[C@H](C(=O)N[C@@H](Cc1ccccc1)C(=O)N[C@@H](Cc1ccccc1)C(=O)N[C@@H](Cc1ccc2ccccc2c1)C(=O)O)C(C)C)OC(=O)CCCCCCCCCCCCCCC` (stereo partly shown) has a gene expression of 12.7 FPKM and 12.5 FPKM and 14.2 FPKM (BV-2; RNA-seq, measured: Il4ra).
For `CC(C)Cc1ccc(C(C)C(=O)[Se]CC(=O)Nc2cccc(C(F)(F)F)c2)cc1` (stereo not shown), the mean TGI was 3.79 µM (NCI60 prostate subpanel (PC-3, DU-145); total growth inhibition, inhibitor; five-dose).
For `O=C(N1CCCC1)n1cc(-c2ccc(-c3ccccc3)cc2)nn1`, “SILAC ratio per peptide” read 1.11 and 0.96 and 1.08 (mouse T cells; N-terminal labelling proteomics, measured: Serf2 N-terminal peptide; 0.001 µM, 6 h; baseline: DMSO).
With `CO[C@@H]1[C@@H](OC(N)=O)[C@@H](O)[C@H](Oc2ccc3c(O)c(NC(=O)c4ccc(O)c(CC=C(C)C)c4)c(=O)oc3c2C)OC1(C)C` the colony survival was 0.312% (DLD-1 BRCA2-/-; 250 µM, replicate B; baseline: untreated).
`O=C(C[Se]C(=O)c1cc2ccccc2o1)Nc1cccc(C(F)(F)F)c1` has a mean TGI of 3.18 µM (NCI60 prostate subpanel (PC-3, DU-145); total growth inhibition, inhibitor; five-dose).
`Cc1cc(NC2CCN(C)CC2)ccc1-c1cc2c(N3CCC[C@H](C(=O)N[C@H](C)c4ccccc4)C3)ncnc2[nH]1` has an inhibition of 16.8% (NCI-H3122; cell growth or viability, MTT; 0.04 µg/mL, 72 h).
`C[C@H](NC(=O)CN)C(=O)NCC(=O)N[C@@H](C)C(=O)N[C@@H](C)C(=O)NCC(=O)NCC(=O)N[C@@H](C)C(=O)NCC(=O)NCC(=O)NCC(=O)NCC(=O)NCC(=O)NCC(=O)NCC(=O)N[C@@H](CCCCNC(=O)CCCC[C@@H]1SC[C@@H]2NC(=O)N[C@@H]21)C(N)=O` has a binding rate of 0.25% and 0.4% and 0.31% (HEK293T-OFP cells; flow cytometry; concentration not given, with: biotin-labelled peptide).
`CNS(=O)(=O)Nc1nccc(Cc2c(C)c3ccc(Oc4ncccc4F)cc3oc2=O)c1F` gave an IC50 of over 1 µM (LS180; cell viability; 7 days).
The pSTAT1 level of `CC1(C)C[C@@H](Nc2cccc(-c3sc(C(=O)O)c(OCC(=O)O)c3Cl)c2)CCN1S(=O)(=O)Cc1cccc(NC(=O)CN2CCC(c3ccc4c(c3)oc(=O)n4C3CCC(=O)NC3=O)CC2)c1` (stereo partly shown) is reported as 35.5% and 37.7% and 41.6% and 33.9% and 34.2% and 39.4% (B16-F10; HTRF, measured: phospho-STAT1 Tyr701; 0.123 µM, with: IFN-γ; baseline: min-max normalised).
`Cc1ncsc1-c1ccc(C(C)NC(=O)C2CC(O)CN2C(=O)C(NC(=O)CCCCCCCCCCN2CCCC(Nc3ncc(Cl)c(Nc4ccccc4S(=O)(=O)C(C)C)n3)C2)C(C)(C)C)cc1` (stereo not shown): “log2 fold change” -1.8 (22Rv1; RNA-seq, measured: ZNF691 mRNA; concentration not given; baseline: DMSO).
For `[Cl-].[Cl-].[Ru+2].c1ccc(-c2ccccn2)nc1.c1ccc(-c2ccccn2)nc1.c1ccc2cc3nc4c5cccnc5c5ncccc5c4nc3cc2c1`, the phototherapeutic index was 1 (SK-MEL-28; light 633 nm, oxygen 1%; baseline: dark EC50 over light EC50).
For `CCNc1cc2c(cc1C)C1(c3cc(C)c(NCC)cc3O2)c2ccccc2C(=O)N1N=Cc1c[c-]c(-c2ccccn2)cc1.Cc1c(C)c(-c2ccc(-c3ccccc3)cc2)[c-](C)c1C.[Cl-].[Ir+3]`, “S phase cells” read 30.19 ± 0.12% (A549; PI flow cytometry; 0.5 x IC50, 24 h).
The fold regulation of `CCN(CC)CC(=O)Nc1cccc(-n2cc(-c3ccc4ccc(-c5cn(-c6cccc(NC(=O)CN(CC)CC)c6)nn5)cc4c3)nn2)c1` is reported as -1.91 (RCC4; PCR angiogenesis array, measured: PTGS1; 5 x IC50, 6 h, normoxia; baseline: untreated).
For `CN(C)c1ccc(-n2cc(COC(=O)[C@]3(C)C=C(C(=O)OC(C)(C)C)C(=O)CC3)nn2)cc1`, the pERK/ERK ratio was 0.221 (HeLa; quantitative western blot; concentration not given, 15 (unit not given), with: EGF).
`CN1CCCNC(=O)c2cccc(c2)C(=O)NCCCN(C)CCCNc2cccc3c2C(=O)c2cccc(c2C3=O)NCCC1` — result for “log2 fold change”: -0.925 (SAS; RNA-Seq, measured: CHD1 mRNA; 1 µM, 6 h; baseline: untreated cells).
The AP-TGFα release of `CNc1ncnc2c1ncn2C1OC(CO)C(O)C1O` (stereo not shown) is reported as 0.79% and 1.53% and 2.03% (mock-transfected cells; TGFα shedding, agonist; 1 µM; baseline: unstimulated vehicle control).
`COc1ccccc1-c1ccncc1C(=O)Nc1nnc(OCc2ccc(Cl)cc2)s1` gave a colony count of 39 and 37 and 35 and 45 and 44 and 47 (DLD-1 BRCA2-/-; 0.125 µM, single replicate).
`CCN(C(=O)c1cc(F)ccc1Oc1nncnc1N1CCC2(C1)CN([C@H](CCCN(C)CCOC)C(C)C)C2)C(C)C` has a GI50 of over 10 µM (A-431; cell growth or viability; 72 h).
Under “mean growth percent”, `O=C(C[Se]C(=O)C12CC3CC(CC(C3)C1)C2)Nc1cccc(C(F)(F)F)c1` is recorded as -54% (NCI60 prostate subpanel (PC-3, DU-145); cell growth; 10 µM, 48 h, one-dose).
The EC50 of `Cc1cccc(-c2cccc(C)n2)n1.Cc1cccc(-c2cccc(C)n2)n1.F[P-](F)(F)(F)(F)F.F[P-](F)(F)(F)(F)F.[Ru+2].c1ccc(-c2nc3c4cccnc4c4ncccc4c3[nH]2)cc1` is reported as 132 ± 10 µM (SK-MEL-28; cell viability; 1% O2, with: green light 523 nm, 100 J/cm2).
`C[C@@H](Nc1c(-c2c(F)cc(C#N)cc2F)c(Cl)nc2ncnn12)C(C)(C)C`: “minimum effective concentration” 0.3 µM (QBI293; microtubule stabilization, ELISA, measured: acetylated α-tubulin; 4 h).
The EC50 of `Cc1cccc(-c2cccc(C)n2)n1.Cc1cccc(-c2cccc(C)n2)n1.F[P-](F)(F)(F)(F)F.F[P-](F)(F)(F)(F)F.[Ru+2].c1ccc2c(-c3nc4c5cccnc5c5ncccc5c4[nH]3)c3ccccc3cc2c1` is reported as 104 ± 9 µM (SK-MEL-28; cell viability; dark, 1% O2).
For `Cc1cc(Cl)cc(-c2ccnc3cc(CN4C(=O)C5C(C4=O)C5(C)C)sc23)c1C[C@@H]1CNCCO1` (stereo partly shown), “late apoptotic cells” read 7.66% and 14.6% and 10.2% (CHP-212 resistant subline R3; annexin V/PI flow cytometry; 1 µM, 48 h).
For `CC(=O)Oc1ccccc1C(=O)[Se]CC(=O)Nc1cccc(C(F)(F)F)c1`, “mean growth percent” read 16.9% (NCI60 prostate subpanel (PC-3, DU-145); cell growth; 10 µM, 48 h, one-dose).
`Cn1ncc2cc(-c3cncc(Cl)c3N3CCC4(CCNC4=O)CC3)ccc21` — result for “log2 fold change”: 1.36 (LS174T; gene expression, microarray, measured: PADI1 mRNA; concentration not given, 4 h; baseline: untreated cells).
The protein level of `CC1(C)CC[C@@]2(CO)C(=C3C=C[C@@H]4[C@@]5(C)CC[C@H](O)[C@@](C)(CO)[C@@H]5CC[C@@]4(C)[C@]3(C)C[C@@H]2O)C1` is reported as 0.843 and 1.06 and 0.921 (HepG2, negative control siRNA; Western blot, measured: mTOR; concentration not given, high dose, unit not given, with: ethanol; baseline: β-actin).
`O=C1C(Br)=C(Br)C(=O)c2ccccc21` gave a selectivity index of 1.96 (HuCC-A1; MTT; baseline: IC50 MRC-5 over IC50 HuCC-A1).
Under “dead cell to confluence ratio”, `COc1ccc(NC(=O)c2ccc3[nH]c(-c4ccc(N(C)C)cc4)nc3c2)cn1` is recorded as 40.2 and 198 and 117 (HCT116; IncuCyte; concentration not given, 14 h).
Under “mean neuron degeneration”, `C=CC(=O)N1[C@H](c2ccc3c(c2)OCO3)c2[nH]c3ccccc3c2C[C@@H]1C(=O)NC1CC1` is recorded as 83.2% (rat DRG neurons; 0.004572 µM, 48 h, with: vincristine 40 nM).
